Results collected from several papers.
Numbered parts are unrelated; each lists some results of a single study.

Series 1
Target: Interferon regulatory factor 7, full length, phosphomimetic (IRF7, Homo sapiens, UniProt Q92985, residues 1-503, S101K/S471D/S472D/S475D/S476D/S477D/S483D/S484D/S487D)
Method: protein-binding microarray
Form: double-stranded DNA, one strand shown
Sample: in vitro
Concentration: 250 nM
Setting: 60-bp whole probe
Together with: salmon DNA 0.4 mg/ml
Relative to: random background probes
Reading: higher = stronger binding
Quantity: log fluorescence
Shared flanks, not repeated: GCCTAGCAC … GTCTTGATTCGCTTGACGCTGCTG
Residues (chain): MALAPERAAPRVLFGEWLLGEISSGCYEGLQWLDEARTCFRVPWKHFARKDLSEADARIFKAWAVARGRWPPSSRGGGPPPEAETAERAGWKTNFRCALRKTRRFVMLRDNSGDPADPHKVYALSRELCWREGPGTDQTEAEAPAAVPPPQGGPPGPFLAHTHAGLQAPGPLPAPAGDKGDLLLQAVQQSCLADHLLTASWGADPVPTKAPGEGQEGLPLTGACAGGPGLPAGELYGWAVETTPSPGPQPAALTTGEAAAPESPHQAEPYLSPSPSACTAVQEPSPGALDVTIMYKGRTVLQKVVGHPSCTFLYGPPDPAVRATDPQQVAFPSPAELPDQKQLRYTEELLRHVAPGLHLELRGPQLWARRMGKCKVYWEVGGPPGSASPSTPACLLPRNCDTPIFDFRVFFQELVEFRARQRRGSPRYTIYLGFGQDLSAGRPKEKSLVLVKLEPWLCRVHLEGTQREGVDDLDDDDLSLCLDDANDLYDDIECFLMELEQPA
Strand = TCAGCCCTCCCTGTGGGACTGTGCTAG; result = -0.585 z-score
Strand = TCACATACGAGTTTCCAACTGTGCTAG; result = 0.877 z-score
Strand = GACGGTATCGACTTTCGGAACGTGCTA; result = 1.88 z-score
Strand = TTAGATCTCATTTTCGATTAGTGCTAG; result = 3.34 z-score
Strand = TTAGGTTCCGGTTTCGGGTAGTGCTAG; result = 9.59 z-score
Strand = GACGATCTCAGTATTGAGACGTGCTAG; result = -0.0559 z-score
Strand = GACGATTTCGGGTACCGAGACGTGCTA; result = 0.215 z-score
Strand = TTAGGTCTCCTACTGCTTTGGTGCTAG; result = 0.0339 z-score

Series 2
Target: RNA binding protein fox-1 homolog 2, RRM domain, GST-SBP tag (RBFOX2, Homo sapiens, UniProt O43251-10, residues 100-194)
Method: RNA Bind-n-Seq
Form: RNA
Sample: in vitro
Concentration: 365 nM
Setting: natural RNA segment, single round, ends assumed
Relative to: no-protein control
Reading: higher = stronger binding
Quantity: RBNS enrichment (R)
Construct (chain): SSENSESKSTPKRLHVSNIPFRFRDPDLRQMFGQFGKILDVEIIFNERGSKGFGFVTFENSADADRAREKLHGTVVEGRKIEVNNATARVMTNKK
Strand = GGGAGUUCUACAGUCCGACGAUCAUUAGGGCUAGUGACUUUCUCAAACUCAGAAGCUAAAAAGCAGCCUAGAUGACUAUGCACACACUGGGUUUCAAGAUGAAAUCUUCUUAUAUAUUCAGAUGGAAAAAAAUUGGAAUUCUCGGGUGCCAA; result = 0.214
Strand = GGGAGUUCUACAGUCCGACGAUCAUAGAGCCUUCAGUUUGCCAUUACCCACUGUGGUCUGCUUUUCAGCCUAGCAAUUUGAGCUCUCAGCAGUGAGAAGACCCCGCCCUGCCUUCAUUAGAGCUAUCAAUACUUGGAAUUCUCGGGUGCCAA; result = 0.492
Strand = GGGAGUUCUACAGUCCGACGAUCUCUUUUAACCUGCGCAUGUGUGUGCACAUGUGCAUGCGCAUACACACACACACACACACACACACACAUACCUUAAAAAUUUUUUAAAGUACAUUUGUUGUUGCUUGUAAUGGAAUUCUCGGGUGCCAA; result = 0.717
Strand = GGGAGUUCUACAGUCCGACGAUCCAUGCCAGUACCUGCCUGGGGGUGGGGGGUGCCUGGCAGCCAUGAAGCAGGCUGAAAGGCAGAGGGGCUCCAGGUCCUGUUUCCAGCUCCCCUCACUGCACAUGGUGAAGUGGAAUUCUCGGGUGCCAA; result = 0.685

Series 3
Target: Histone acetyltransferase KAT6A, both winged helices, GST fusion (KAT6A, Homo sapiens, UniProt Q92794, residues 1-181)
Method: protein binding microarray
Form: double-stranded DNA, one strand shown
Sample: in vitro
Concentration: not given
Setting: 8-mer, flanks averaged, mean of 2 arrays, mostly near background
Relative to: not given
Reading: higher = stronger binding
Quantity: E-score
Residues (chain): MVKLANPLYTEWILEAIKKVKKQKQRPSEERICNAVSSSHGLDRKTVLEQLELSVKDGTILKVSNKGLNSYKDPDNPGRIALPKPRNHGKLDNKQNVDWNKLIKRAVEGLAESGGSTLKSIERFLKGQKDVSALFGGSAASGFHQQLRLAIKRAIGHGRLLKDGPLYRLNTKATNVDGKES
Strand = AACACTCT; result = -0.0308
Strand = AATCTTCC; result = -0.13
Strand = AATTACGA; result = -0.0405
Strand = GTATGGAC; result = -0.079

Other studies, line by line
Substance = PhoQ, residues 284 288 289 292 302 303 SSTMSV; target = PhoP, residues 12 14 15 18 19 NQGLL (Escherichia coli, UniProt P23836); test = Sort-seq, refers to: YFP reporter; test system = E. coli; conditions = PhoQ-PhoP variant library, together with: 10 µM Mg2+; how to read = relative to: high Mg2+ state, higher = stronger signaling; quantity = fold induction; result = 3.24

For quick reference, copied from above (series 3):
Strand = AATTACGA; result = -0.0405
Strand = GTATGGAC; result = -0.079
